Measurements from different studies.
A part holds a random share of what one study measured. “And” joins repeats or separate records; there may be more than shown. Positions count from the first letter of the parent shown.
UniProt P06870, sequence (whole entry, looked up): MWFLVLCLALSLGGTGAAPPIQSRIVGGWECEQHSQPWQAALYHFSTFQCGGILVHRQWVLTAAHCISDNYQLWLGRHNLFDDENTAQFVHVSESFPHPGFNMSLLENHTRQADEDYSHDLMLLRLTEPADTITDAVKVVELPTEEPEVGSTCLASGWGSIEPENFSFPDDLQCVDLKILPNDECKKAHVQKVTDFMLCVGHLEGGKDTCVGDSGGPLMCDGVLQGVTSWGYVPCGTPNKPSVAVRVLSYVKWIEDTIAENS
UniProt P62837, sequence (whole entry, looked up): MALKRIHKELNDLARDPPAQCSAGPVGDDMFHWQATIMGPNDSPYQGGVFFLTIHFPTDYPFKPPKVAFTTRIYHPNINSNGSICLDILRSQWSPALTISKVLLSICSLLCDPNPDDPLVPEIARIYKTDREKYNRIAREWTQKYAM

Study 1
Target: CCND1, cyclin fold, Cln2 fusion (human)
Technique: yeast growth competition, sequencing
Medium: yeast
Setting: weak parent motif
Baseline: not given
Reading: higher = stronger binding
Quantity: normalised enrichment score
Parent: viral docking peptide; TSVRRALFTGGSD
TSVRRAVFTGGSD [L7V]: 0.0781
TSVRRALFTGGAD [S12A]: 0.37
TSVRRALFMGGSD [T9M]: 0.432
TSVRRALVTGGSD [F8V]: -0.163
TSVRRALFWGGSD [T9W]: 0.528
TSVRRALFTGWSD [G11W]: 0.347
TSVRRALFTGGDD [S12D]: 0.984
TSVRRALETGGSD [F8E]: -0.373

Study 2
Target: HLA class I histocompatibility antigen, A alpha chain, allele A*80:01 (Homo sapiens, UniProt P04439)
Read-out: peptide-MHC binding
Molecule type: peptide
Tested at: concentration not given
Quantity: binding
ILMARYMSK: inactive
VTENKKIQY: inactive
MGMEQTMSV: inactive
LAMLVLHQV: inactive
SIKFKRKLM: inactive
WVDSTPPPG: inactive
APVESMALF: inactive
SVIDHIHYM: inactive

Single results of other studies
UBE2D4: UBE2D4 UBC core domain (UniProt Q9Y2X8)
UniProt Q9Y2X8, sequence (whole entry, looked up): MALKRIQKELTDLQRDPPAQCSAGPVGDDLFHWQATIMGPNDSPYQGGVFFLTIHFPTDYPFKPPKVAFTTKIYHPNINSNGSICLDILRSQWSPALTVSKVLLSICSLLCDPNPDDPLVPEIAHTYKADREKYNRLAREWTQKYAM
B1: RNF14 RING domain (UniProt Q9UBS8); chain IKCFNSKLFLCSICFCEKLGSECMYFLECRHVYCKACLKDYFEIQIRDGQVQCLNCPEPKCPSVATPGQVK
B2: RNF43 RING domain (UniProt Q68DV7); chain SGSSCSSAPVCAICLEEFSEGQELRVISCLHEFHRNCVDPWLHQHRTCPLCMFNITEGDSFS
B1 (RNF14 RING domain)  lacZ reporter activity (UBE2D4; yeast two-hybrid; yeast; mostly zero background; baseline: not given, higher = stronger interaction): 0
CN(C)C(=O)COC(=O)Cc1ccc(OC(=O)c2ccc(NC(=N)N)cc2)cc1  IC50 (Kallikrein-1 (KLK1, Homo sapiens, UniProt P06870)): 17.2 µM and > 10 µM
SYEDKSNDFVCPICFDMIEEAYMTKCGHSFCYKCIHQSLEDNNRCPKCNYVVDNIDHLY (COP1 RING domain (UniProt Q8NHY2))  lacZ reporter activity (UBE2D4; yeast two-hybrid; yeast; mostly zero background; baseline: not given, higher = stronger interaction): 0
ClCC1C(CCl)[C@@]2(Cl)C(Cl)=C(Cl)[C@]1(Cl)C2(Cl)Cl (stereo partly shown)  viability (A-375; 100 µM, 18 h): 8%
ANYISAHTKDCPKCNICIEKNGGCNHMQCSKCKHDFCWMCLGDWKTHGSE (ARIH2 RING domain (UniProt O95376))  lacZ reporter activity (UBE2D2 UBC core domain (UniProt P62837); yeast two-hybrid; peptide, yeast; mostly zero background; baseline: not given, higher = stronger interaction): 0
B2 (RNF43 RING domain)  lacZ reporter activity (UBE2D4; yeast two-hybrid; yeast; mostly zero background; baseline: not given, higher = stronger interaction): 7880
